Assay results pooled from the literature.
Numbered parts are unrelated; each lists some results of a single study. Substitutions count along the parent as printed.

Study 1
Target: TAR DNA-binding protein 43, full length, His tag (TARDBP, Homo sapiens, UniProt Q13148, residues 1-414)
Technique: RNA Bind-n-Seq
Form: RNA
Medium: in vitro
Tested at: 20 nM
Setting: 6-mer, flanks averaged, single round
With: 150 mM LiCl
Reference: input library
Reading: higher = stronger binding
| Sequence | 6-mer enrichment (R) |
| --- | --- |
| GCGCAU | 1 |
| AAGGAA | 0.872 |
| CUUCAG | 0.832 |
| UGAAUA | 0.923 |
| UUGAAU | 1.06 |
| UCUCGA | 0.786 |
| GGAUAC | 0.879 |
| CAGCCC | 1.01 |
| CAAGGG | 1 |
| GGCAUU | 0.932 |
| CUUAUA | 0.969 |
| UUGAGC | 0.982 |
| CUGGCC | 0.953 |
| UCAAUU | 0.942 |
| AGUUUU | 1.14 |
| UUUGCC | 1.12 |
| GCCCGA | 1.02 |
| UGGUCC | 0.99 |

Study 2
Target: CCND1, cyclin fold, Cln2 fusion (human)
Technique: yeast growth competition, sequencing
Medium: yeast
Setting: weak parent motif
Reference: not given
Reading: higher = stronger binding
Starting sequence: E2F1 docking peptide (human); PPVKRRLDLETDH
| Substitution | normalised enrichment score |
| --- | --- |
| K4D | 0.234 |
| D8E | -0.172 |
| V3H | -0.0256 |
| P1N | 0.307 |
| P1G | 0.659 |
| D12Y | 0.66 |
| R6M | 0.495 |
| P1C | 0.142 |
| D12M | 0.261 |
| R5V | -0.44 |
| E10Y | -0.426 |
| L7K | 0.267 |
| T11A | 0.784 |
| K4G | 0.48 |

Study 3
Target: RING finger protein unkempt homolog, zinc fingers 1-6, GST-SBP tag (UNK, Homo sapiens, UniProt Q9C0B0, residues 30-357)
Technique: RNA Bind-n-Seq
Form: RNA
Medium: in vitro
Tested at: not given
Setting: RNA with constant flanks, human and mouse sites, ends assumed
Reference: input RNA pool
Reading: higher = stronger binding
Constant ends, left off below: GGGAGUUCUACAGUCCGACGAUC … CAACAGAGGAUUGAGCAUCA
Construct (chain): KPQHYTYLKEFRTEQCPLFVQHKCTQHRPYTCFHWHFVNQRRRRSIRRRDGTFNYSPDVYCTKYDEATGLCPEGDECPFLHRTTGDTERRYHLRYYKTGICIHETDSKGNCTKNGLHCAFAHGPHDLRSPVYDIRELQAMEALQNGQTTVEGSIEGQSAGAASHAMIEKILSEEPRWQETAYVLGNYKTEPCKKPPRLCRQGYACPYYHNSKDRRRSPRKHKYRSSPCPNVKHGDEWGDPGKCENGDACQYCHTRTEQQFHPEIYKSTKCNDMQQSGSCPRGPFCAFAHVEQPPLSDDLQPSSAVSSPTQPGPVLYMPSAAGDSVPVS
| Sequence | bound/input enrichment [ratio] |
| --- | --- |
| GCCCCAGAGCAGAGGAAAAUCCAAAGUGGAGAGAGGGGAAGAAAGAGACCAGUGAGUCAUCCGUCCAGAAGGCGGGGAGAGCAGCAGCGGCCCAAGCAGGAGCUGCAGCGAGCCGGGUAC | 0.311 |
| UCCCCACUGAAGCAUGCAUAUGCCGCUGUCACCAAAAGCAAACUCUGUCAUUCAGAGCCUUUCCGUGUCUCCUCUUGCCCGCCCUUGUCCACCACUUUCAACGAUGUCCCCAGGUUGUCC | 0.252 |
| CUUGAUUUCCUACGAAUCAGUGACACAGAAGAGCUUCCAGAAUUUAAGAGUUUUGAGGAACUAGAACCUCCCAAACAUUCAAAAGUCAAACGGCAAAGCAGCACCCCUAGUGCUCCUGAA | 0.539 |
| GUAUCUAGCUUUUAAAGAACUACAUGUGUCUUUAAAAGUAUUUAUUGUGCAAAUGUACUAUAGCAGUUCAUCUUCAUGUUCCAGCCUUACUCUGUGUUAAUACUGCUUCACAAUUCUGAA | 0.243 |
| GACUUGGCCACUGUGAAUACCAAUCCAUUUGAUGAACCUGAUGUAACAGAAUUAAAUCCAUUUGGAGAUCCUGACUCAGAAGGUGUACAGACUCCACAGUAUUUGAACCCAUUUGAUGAA | 0.24 |
| CCGUCUAUAUAUGUGUGAAUAAUGUAAGUAUUUUACAGCAUGUUGAUUUUUAAAUUAACGUAGUAAAUGCUGUAAAAUAGAUUUAUAUUCAGUUAACCGCUUUCAGUUGAUUUUUUGAAA | 0.427 |
| GAUUCAUUGCCUGCUUUACUGGAAUUCUACAAAAUACACUAUUUGGACACUACAACAUUGAUAGAACCAGUGGCCAGAUCAAGGCAGGGUAGUGGAGUGAUUCUCAGGCAGGAGGAGGCA | 0.355 |
| GAGGAAAACUGAGCCAUCUGCCUGGAGUCAAGACACUGGAGAUGCUAAUACAAAUGGAAAAGACUGGGGAAGGAGUUGGAGUGACCGUUCAAUAUUUUCUGGCAUUGGUCUCAGAUGAUG | 0.541 |
| GAUGCUGUGGCAGCUAUGGCAAAAGACAAAGCUAAUAUGCAACACAGAUAUGUGGAGCUCUUCUUAAAUUCUACUGCAGGAACAAGUGGGGGUGCUUACGAUCACAGCUAUGUAGAACUU | 0.401 |
| CCGGUGGAGGGCAGCGAGAUAGGCUCAGAGACGCUGUCCGUGUCCUCCUCACGCGACUCCACCCUGCGCAGGAAGGGCAACAUCAUCUUGAUCCCGGAAAGAAGCAACAGCCCUGAAAAC | 0.0806 |
| GCAGAUGAAGCAGAGAAUCUUAAAUUGUGGAACUCUUUCUGUCAUUCUGAGGACCCCUACAACCUUUUAAAUUUUAAGGCUCCUUUUCAACCGUCAGGGAAGAAUUGGAAAGGCCGUCAG | 0.264 |

Study 4
Target: Ras GTPase-activating protein-binding protein 1, C-terminal RGG region (G3BP1, Homo sapiens, UniProt Q13283)
UniProt Q13283, sequence (whole entry, looked up): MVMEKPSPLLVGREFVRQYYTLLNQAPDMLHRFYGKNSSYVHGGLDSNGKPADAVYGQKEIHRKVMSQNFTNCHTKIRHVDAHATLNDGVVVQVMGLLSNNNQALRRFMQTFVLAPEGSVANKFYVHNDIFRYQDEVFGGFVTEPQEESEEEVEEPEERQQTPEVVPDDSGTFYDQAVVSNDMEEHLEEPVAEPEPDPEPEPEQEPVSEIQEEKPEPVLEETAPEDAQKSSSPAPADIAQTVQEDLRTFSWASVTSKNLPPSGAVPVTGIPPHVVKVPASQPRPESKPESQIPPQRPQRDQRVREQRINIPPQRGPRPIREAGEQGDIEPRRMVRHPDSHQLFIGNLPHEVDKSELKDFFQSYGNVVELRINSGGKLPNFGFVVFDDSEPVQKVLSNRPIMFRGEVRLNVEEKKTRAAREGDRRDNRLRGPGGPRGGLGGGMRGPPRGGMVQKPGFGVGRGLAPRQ
Technique: RNA Bind-n-Seq
Form: RNA
Medium: in vitro
Tested at: 1 µM
Setting: whole 134-nt RNA, ends assumed
With: 150 mM KCl
Reference: input library
Reading: higher = stronger binding
Constant ends, left off below: GGGAGUUCUACAGUCCGACGAUC … UGGAAUUCUCGGGUGUCAAGG
| Sequence | log2 enrichment |
| --- | --- |
| UCCUCAAGUCCUGUGCUACACAUCGUAUGUACCGAAUCGGCGGGCGGCGGGGAAAGUAUUAUGUUACGCCGUUCGGAUCUGCACUUCCAG | -0.369 |
| UGGCCCUGGUGGCAUGCGGGGAGGAAGAGGUGGCCUCGUGGAUCGUGGUGGUCCCGGUGGAAUGUUCAGAGGUGGCCGUGGUGGAGACAG | 2.15 |
| AGUCCUGUGCUACACAUCGUAUGUACCGAAUCGGGAAAAAGGGUUUGGGUUUUUGGGAAAGUAUUAUGUUACGCCGUUCGGAUCUGCACU | 0.665 |
| CAAGUCCUGUGCUACACAUCGUAUGUACCGAAUCGGAAAAAGGUUUGGUUUUUGGAAAGUAUUAUGUUACGCCGUUCGGAUCUGCACUUC | -1.61 |
| CUCAAGUCCUGUGCUACACAUCGUAUGUACCGAAUCGGGAAAGGGUGGGUGGGAAAGUAUUAUGUUACGCCGUUCGGAUCUGCACUUCCA | 1.69 |
| ACCAUGCAGGUGGACAUCUUUGGGAAGUGGGGCAAGGGGGGGAUAGGGAGGGGGGUAACACUUUGGGAACAGGUGGUCCCAGGUCGUUUC | -1.24 |
| UCAAGUCCUGUGCUACACAUCGUAUGUACCGAAUCGGAAAAAGGAGGUUUUUGGAAAGUAUUAUGUUACGCCGUUCGGAUCUGCACUUCC | -1.07 |
| UAGCAAGCCAAAUUACAGCAGCAGAUGGACCUGCAGAAAAAUCACAUUUUCCGUCUGACUCAAGGACUGCAAGAAGCUCUAGAUCGGGCU | -2.21 |
| CCUGUGCUACACAUCGUAUGUACCGAAUCGGCCCCCCGGGCCCCCCGGGGCCCCCCGGGGAAAGUAUUAUGUUACGCCGUUCGGAUCUGC | -2.33 |
| UGGGAGGUGGAUUUUGUUUAUUUUUUUAGCUCAUUUCCAGGGGUGGGAAUAUUUUUUUAAUAUGUGUCAUGAAUAAAGUUGUUUUUGAAA | 3.68 |

Study 5
Target: Histone acetyltransferase KAT6A, winged helix 1, GST fusion (KAT6A, Homo sapiens, UniProt Q92794, residues 1-85)
Technique: protein binding microarray
Form: double-stranded DNA, one strand shown
Medium: in vitro
Tested at: not given
Setting: 8-mer, flanks averaged, mean of 2 arrays, mostly near background
Reference: not given
Reading: higher = stronger binding
Residues (chain): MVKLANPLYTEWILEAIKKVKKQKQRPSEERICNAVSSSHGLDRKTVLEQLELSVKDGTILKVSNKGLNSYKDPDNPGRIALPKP
| Sequence | E-score |
| --- | --- |
| GTAAACTA | -0.0431 |
| CACGGCGA | 0.366 |
| CTGACTCA | -0.0795 |
| CACCCTGC | -0.0524 |
| ATGCTGAG | -0.102 |
| ATATAATA | -0.142 |
| CCCTATGC | -0.118 |
| GTTTTGCA | -0.185 |
| ACCTGCAG | -0.306 |
| CAGGCTCC | 0.0915 |
| CAAACGGA | 0.151 |
| AGCCGCTA | 0.286 |
| AGTATTAG | -0.128 |
| GGGTGCAA | -0.175 |
| CGGCCGAG | 0.42 |
| GCTTAGTA | 0.123 |
| ATAGTACG | 0.148 |
| ATCGGCAT | 0.131 |
| GTCGAGGA | -0.175 |
| CTAAACCC | -0.0915 |
| CCGGCACA | 0.23 |
| AAGATGGC | 0.0371 |
| GACGGAGC | 0.0753 |
| ATAGTGTG | -0.0302 |
| ACCGCCAA | -0.00626 |

For quick reference, copied from above (study 5):
| Sequence | E-score |
| --- | --- |
| ACCTGCAG | -0.306 |
| AGTATTAG | -0.128 |
| GTAAACTA | -0.0431 |
| CTGACTCA | -0.0795 |
| ATGCTGAG | -0.102 |
| ATAGTACG | 0.148 |
| CTAAACCC | -0.0915 |
| CGGCCGAG | 0.42 |
| ACCGCCAA | -0.00626 |
| ATAGTGTG | -0.0302 |
| AGCCGCTA | 0.286 |
| AAGATGGC | 0.0371 |
